Measured values collected from several papers.
Every numbered part comes from another study and shows a few of its results, in no order.
Chain of UniProt O15294 (whole entry, looked up): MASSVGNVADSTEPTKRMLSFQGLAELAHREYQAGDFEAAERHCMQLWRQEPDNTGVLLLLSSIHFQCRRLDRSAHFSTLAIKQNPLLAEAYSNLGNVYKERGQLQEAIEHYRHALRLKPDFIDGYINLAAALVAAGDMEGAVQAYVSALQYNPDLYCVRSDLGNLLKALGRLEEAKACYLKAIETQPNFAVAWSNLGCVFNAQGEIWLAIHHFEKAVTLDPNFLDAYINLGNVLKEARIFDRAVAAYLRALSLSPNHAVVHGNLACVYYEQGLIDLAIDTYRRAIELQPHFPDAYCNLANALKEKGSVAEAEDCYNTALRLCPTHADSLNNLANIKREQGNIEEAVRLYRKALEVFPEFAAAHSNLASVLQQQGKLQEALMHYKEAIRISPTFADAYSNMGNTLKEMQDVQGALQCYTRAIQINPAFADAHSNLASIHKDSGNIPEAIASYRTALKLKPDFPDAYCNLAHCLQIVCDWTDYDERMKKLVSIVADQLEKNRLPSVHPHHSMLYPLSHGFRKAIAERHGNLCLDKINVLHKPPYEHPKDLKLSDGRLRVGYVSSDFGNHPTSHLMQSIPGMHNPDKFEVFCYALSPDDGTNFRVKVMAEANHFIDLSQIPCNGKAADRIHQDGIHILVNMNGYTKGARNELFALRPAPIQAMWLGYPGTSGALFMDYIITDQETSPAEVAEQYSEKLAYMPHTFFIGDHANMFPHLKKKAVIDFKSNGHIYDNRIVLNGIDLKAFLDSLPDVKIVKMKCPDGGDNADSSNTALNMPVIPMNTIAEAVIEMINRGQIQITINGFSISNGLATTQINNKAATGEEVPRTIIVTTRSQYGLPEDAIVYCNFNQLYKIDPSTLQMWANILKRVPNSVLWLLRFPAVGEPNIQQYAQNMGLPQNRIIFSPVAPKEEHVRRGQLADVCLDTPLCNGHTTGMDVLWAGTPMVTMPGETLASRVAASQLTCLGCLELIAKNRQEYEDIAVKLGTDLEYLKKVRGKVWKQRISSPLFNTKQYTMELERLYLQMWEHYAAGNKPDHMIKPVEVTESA

Block 1
Target: Interferon regulatory factor 5, full length, phosphomimetic (IRF5, Homo sapiens, UniProt Q13568-2, residues 1-514, K96S/S451D/S453D/S456D/S462D)
Method: protein-binding microarray
Form: double-stranded DNA, one strand shown
Matrix: in vitro
Tested at: 250 nM
Setting: 60-bp whole probe
With: salmon DNA 0.4 mg/ml
Baseline: random background probes
Reading: higher = stronger binding
Constant ends, left off below: GCCTAGCAC … GTCTTGATTCGCTTGACGCTGCTG
`TCATACTTGTGTCTAGAACTGTGCTAG` gave a log fluorescence of 0.437 z-score.
`GACGATATCAGCTTCGAGACGTGCTAG` has a log fluorescence of 0.719 z-score.
For `GACGAACTGGGGTATCGAGTCGTGCTA`, the log fluorescence was -0.0122 z-score.
The log fluorescence of `TCAAATATGAGACTGGGACTGTGCTAG` is reported as -0.176 z-score.
`GACGGTTCCGGACTGGGGACGTGCTAG` has a log fluorescence of -0.183 z-score.
The log fluorescence of `GACAGTTTCCTTCTCCTGACGTGCTAG` is reported as 1.66 z-score.
The log fluorescence of `TTAGGTATCGGTATCGGATAGTGCTAG` is reported as 8.06 z-score.
With `TTAGAACTGAGACTGGATTTGTGCTAG` the log fluorescence was -0.0747 z-score.

Block 2
Target: Prothrombin, mature alpha-thrombin (F2, Homo sapiens, UniProt P00734)
Method: aptamer microarray, sandwich
Form: DNA with 2'F-ANA
Matrix: in vitro
Tested at: 200 nM
Setting: whole 15-mer aptamer, many near background
With: Cy3 exosite-II aptamer, 400 nM
Reading: higher = stronger binding
Sequence: GGTTGGTGTGGTTGG
For `2'F-ANA at 1 8 11 13`, “mean fluorescence intensity” read 199 a.u.
Under “mean fluorescence intensity”, `2'F-ANA at 7 9 11 12 15` is recorded as 615 a.u.
`2'F-ANA at 2 3 8 10 13 14`: “mean fluorescence intensity” 307 a.u.
For `2'F-ANA at 1 3 4 5 7 8 12 13 15`, “mean fluorescence intensity” read 93.6 a.u.
For `2'F-ANA at 1 6 7 8 9 13`, “mean fluorescence intensity” read 140 a.u.
Under “mean fluorescence intensity”, `2'F-ANA at 1 3 6 7 8 11 14 15` is recorded as 106 a.u.
For `2'F-ANA at 2 3 6 10 13`, “mean fluorescence intensity” read 314 a.u.
Under “mean fluorescence intensity”, `2'F-ANA at 1 4 6 8 9 13 15` is recorded as 79.2 a.u.

Block 3
Target: PABPC1L2, full length, GST fusion (mouse, UniProt A0ABA7IW68)
Method: RNAcompete
Form: RNA
Matrix: in vitro
Tested at: 20 nM
Setting: 7-mer, probes averaged, single round
Baseline: mean of 7-mers
Reading: higher = stronger binding
Target sequence (chain): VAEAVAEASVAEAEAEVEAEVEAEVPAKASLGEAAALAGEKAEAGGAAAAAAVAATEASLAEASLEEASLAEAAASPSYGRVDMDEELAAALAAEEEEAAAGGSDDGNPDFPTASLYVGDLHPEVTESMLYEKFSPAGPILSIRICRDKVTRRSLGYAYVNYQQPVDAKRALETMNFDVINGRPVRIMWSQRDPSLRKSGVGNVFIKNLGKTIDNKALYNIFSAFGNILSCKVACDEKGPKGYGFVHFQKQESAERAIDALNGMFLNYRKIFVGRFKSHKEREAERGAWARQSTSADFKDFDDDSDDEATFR
`UGAACCG` gave a 7-mer Z-score of -0.166.
`UUCAUUU` gave a 7-mer Z-score of -0.224.
The 7-mer Z-score of `UCGCUAU` is reported as -0.309.
With `ACUAAAA` the 7-mer Z-score was 5.05.
With `CUGCACG` the 7-mer Z-score was -0.122.
With `GGAGAGA` the 7-mer Z-score was 0.209.
With `CAGGCUA` the 7-mer Z-score was 0.0895.
`ACACUAC` has a 7-mer Z-score of -0.128.

Single results of other studies
`VDIGTTYMPFYQITN` — result for “log2 fold enrichment”: 3.26 (UDP-N-acetylglucosamine--peptide N-acetylglucosaminyltransferase 110 kDa subunit (OGT, Homo sapiens, UniProt O15294); phage display binding, phage display panning NGS; peptide; baseline: OGT-panned over input library).

Excerpt of the above (block 2):
Under “mean fluorescence intensity”, `2'F-ANA at 1 3 6 7 8 11 14 15` is recorded as 106 a.u.
For `2'F-ANA at 2 3 6 10 13`, “mean fluorescence intensity” read 314 a.u.
